Measurements collected from several papers.
Numbered parts are unrelated; each lists some results of a single study. Substitutions count along the parent as printed.

Sample 1
Target: CCND1, cyclin fold, Cln2 fusion (human)
Technique: yeast growth competition, sequencing
Matrix: yeast
Notes: weak parent motif
Relative to: not given
Reading: higher = stronger binding
Quantity: normalised enrichment score
Starting sequence: ORC1 docking peptide (human); PRARKRLELGNLG
R2M: 0.331
P1H: -0.171
R2V: 0.17
R2G: -0.23
R4N: 0.0543
R6S: -0.0921
A3W: 0.233
P1N: 0.408
L7G: -0.365
E8N: -0.358
K5S: 0.00381
K5G: -0.0923
L7H: -0.582
L7Y: -0.275
A3P: -0.0713
L9R: 0.0419
E8Q: -0.0669
L12C: 0.0994
R4M: 0.118

Sample 2
Target: Ras GTPase-activating protein-binding protein 1, full length (G3BP1, Homo sapiens, UniProt Q13283)
Sequence of UniProt Q13283 (whole entry, looked up): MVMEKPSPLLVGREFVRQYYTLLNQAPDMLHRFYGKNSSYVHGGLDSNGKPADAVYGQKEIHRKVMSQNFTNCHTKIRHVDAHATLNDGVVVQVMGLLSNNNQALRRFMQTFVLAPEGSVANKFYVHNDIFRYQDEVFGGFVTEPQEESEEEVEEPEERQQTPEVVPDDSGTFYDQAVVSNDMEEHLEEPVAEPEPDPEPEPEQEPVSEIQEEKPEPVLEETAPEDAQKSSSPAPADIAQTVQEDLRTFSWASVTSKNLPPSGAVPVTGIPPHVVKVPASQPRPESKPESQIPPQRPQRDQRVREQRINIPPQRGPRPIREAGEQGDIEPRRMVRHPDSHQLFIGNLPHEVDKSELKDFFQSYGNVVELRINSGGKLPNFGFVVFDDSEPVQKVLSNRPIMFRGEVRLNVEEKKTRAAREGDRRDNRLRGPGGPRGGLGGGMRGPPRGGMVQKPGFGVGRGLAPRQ
Technique: RNA Bind-n-Seq
Molecule type: RNA
Matrix: in vitro
Tested at: 200 nM
Notes: whole 134-nt RNA, ends assumed
Together with: 150 mM KCl
Relative to: input library
Reading: higher = stronger binding
Quantity: log2 enrichment
All sequences stand within: GGGAGUUCUACAGUCCGACGAUC … UGGAAUUCUCGGGUGUCAAGG
UGGCCCUGGUGGCAUGCGGGGAGGAAUAGGUGGCCUCAUGGAUCGUGGUGGUCCCGGUGGAAUGUUCAGAGGUGGCCGUGGUGGAGACAG: 0.18
ACCAUGCAGGUGGGCAUCUUUGGGAAGUGGGGCAAGGGGGGGAUAGGGAGGGGGGUAACACUUUGGGAACAGGUGGUCCCAGGUCGCUUC: 1.43
AGUUCUAUCUCUGGGGUGACUGCCGCAUAUAACCGAGAACAGCUGUGGCUGGCCAAUGAAGGCCUGAUCACCAGGCUGCAGGCUCGCUGC: -0.708
GCAGGAAGUAAAAACAAAUGGAAAUGCUUCGGAUAGUGGCAGGGGUGGGGGAUGCUAAGGAAAGGGUGGGAUGGGAGUGGGUAAAGAGUU: 1.05
AAGUCCUGUGCUACACAUCGUAUGUACCGAAUCGGAGGAAAAAAAGGUUUUUUUGGAAAGUAUUAUGUUACGCCGUUCGGAUCUGCACUU: -1.43
AGUCCUGUGCUACACAUCGUAUGUACCGAAUCGGGAGGGUUUUUGGGUUUUUUUGGGAAAGUAUUAUGUUACGCCGUUCGGAUCUGCACU: -0.387
UCCUGUGCUACACAUCGUAUGUACCGAAUCGGUUUUUUGGGGUUUUUUGGGUUUUUUGGAAAGUAUUAUGUUACGCCGUUCGGAUCUGCA: -0.446
AAGUCCUGUGCUACACAUCGUAUGUACCGAAUCGGGGAAAGGGGUGGGGAAAGGGGAAAGUAUUAUGUUACGCCGUUCGGAUCUGCACUU: 0.457
UCCUAGUCCUAGGAAAACUCCAGUUGCCAGUGAUCAACGCCGUAGGUCCUGCAAAACAGCCCCUGCUUCCAGCAGCAAAUCUCAGACAGA: 0.151

Sample 3
Target: ATF5, bZIP domain (human)
Technique: DHFR protein complementation
Matrix: yeast
Notes: single substitutions, most at no-binding floor
Relative to: wild-type JUN-FOS pair
Reading: higher = stronger binding
Quantity: binding fitness
Starting sequence: JUN, bZIP domain (human); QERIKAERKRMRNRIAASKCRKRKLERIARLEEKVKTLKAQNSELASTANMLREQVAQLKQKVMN; partner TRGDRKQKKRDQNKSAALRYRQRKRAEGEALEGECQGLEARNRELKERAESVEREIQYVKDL
A46G: -1.47 natural log
L45V: -1.48 natural log
K34T: -1.4 natural log
E54N: -1.53 natural log
K39L: -1.44 natural log
L59S: -1.53 natural log
N42E: -1.46 natural log
T48F: -1.56 natural log
A49D: -0.998 natural log
E44D: -1.13 natural log
Q55A: -1.18 natural log
A57Q: -1.61 natural log
Q55K: -1.37 natural log
E33R: -1.43 natural log
L52Y: -1.52 natural log
E44K: -1.4 natural log
V35A: -1.54 natural log
E33A: -1.35 natural log

Sample 4
Target: UBE2E3 UBC core domain (UniProt Q969T4)
Sequence of UniProt Q969T4 (whole entry, looked up): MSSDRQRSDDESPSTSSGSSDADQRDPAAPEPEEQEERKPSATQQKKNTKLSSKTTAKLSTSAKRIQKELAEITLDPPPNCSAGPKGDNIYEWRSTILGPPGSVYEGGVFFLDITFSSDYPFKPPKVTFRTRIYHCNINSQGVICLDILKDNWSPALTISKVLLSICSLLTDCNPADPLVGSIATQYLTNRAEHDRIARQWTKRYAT
Technique: yeast two-hybrid
Matrix: yeast
Notes: mostly zero background
Relative to: not given
Reading: higher = stronger interaction
Quantity: lacZ reporter activity
B1: UBOX5 RING domain (UniProt O94941); chain EQPGSILGPECASCKRVFSPYFKKEPVYQLPCGHLLCRPCLGEKQRSLPMTCTACQRPVASQDVLR
B2: RNF133 RING domain (UniProt Q8WVZ7); chain DEEINPNGDSCVICFERYKPNDIVRILTCKHFFHKNCIDPWILPHGTCPICKCDILKVLGIQ
B3: MAP3K1 RING domain (UniProt Q13233); chain NSIKDEEEQMCPICLLGMLDEESLTVCEDGCRNKLHHHCMSIWAEECRRNREPLICPLCRSKWRSHDFYS
B4: RNF19A RING domain (UniProt Q9NV58); chain ISKQIGDFIECPLCLLRHSKDRFPDIMTCHHRSCVDCLRQYLRIEISESRVNISCPECTERFNPHDIR
B5: RFWD3 RING domain (UniProt Q6PCD5); chain ASMDEEEGDTCTICLEQWTNAGDHRLSALRCGHLFGYRCISTWLKGQVRKCPQCNKKARHSDIVV
B6: RNF121 RING domain (UniProt Q9H920); chain MPTKHLSDSVCAVCGQQIFVDVSEEGIIENTYRLSCNHVFHEFCIRGWCIVGKKQTCPYCKEKVDLKRMFS
B7: MDM4 RING domain (UniProt O15151); chain MEDCQNLLKPCSLCEKRPRDGNIIHGRTGHLVTCFHCARRLKKAGASCPICKKEIQLVIKVF
NLSELTPYILCSICKGYLIDATTITECLHTFCKSCIVRHFYYSNRCPKCNIVVHQTQPLY (PCGF6 RING domain (UniProt Q9BYE7)): 0
AVPSGLEENLCKICMDSPIDCVLLECGHMVTCTKCGKRMNECPICRQYVIRAVHVF (RFFL RING domain (UniProt Q8WZ73)): 0
B1 (UBOX5 RING domain): 0
B2 (RNF133 RING domain): 4470
B3 (MAP3K1 RING domain): 0
B4 (RNF19A RING domain): 0
B5 (RFWD3 RING domain): 0
B6 (RNF121 RING domain): 0
B7 (MDM4 RING domain): 0

Sample 5
Target: Centromere-binding protein 1, full length, N-terminal tag (CBF1, Saccharomyces cerevisiae, UniProt P17106, residues 1-351)
Sequence of UniProt P17106 (whole entry, looked up): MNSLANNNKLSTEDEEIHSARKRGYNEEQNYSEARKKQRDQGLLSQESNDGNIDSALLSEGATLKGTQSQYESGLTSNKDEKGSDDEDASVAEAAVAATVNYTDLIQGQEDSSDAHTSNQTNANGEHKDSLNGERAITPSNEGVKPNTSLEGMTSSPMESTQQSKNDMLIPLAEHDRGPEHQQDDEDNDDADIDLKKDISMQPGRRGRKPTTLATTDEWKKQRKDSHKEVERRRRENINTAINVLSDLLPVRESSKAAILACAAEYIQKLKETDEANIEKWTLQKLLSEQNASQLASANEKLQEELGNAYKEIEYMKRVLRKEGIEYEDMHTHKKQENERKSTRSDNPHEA
Technique: protein-binding microarray
Molecule type: double-stranded DNA, one strand shown
Matrix: in vitro
Tested at: 0.8 µM
Notes: whole 60-bp probe, no competitor
Reading: higher = stronger binding
Quantity: fluorescence intensity
All sequences stand within: … GTCTTGATTCGCTTGACGCTGCTG
GAAATGCTGCACCCTAACGTGCATGTATATATATAG: 567 a.u.
CTAGTAAGTATCCCGCGCGTGGTCCTCGGGGAATTC: 491 a.u.
GAACGGGCCCCACGGGAGGTGATGGTGCCGCTTTAG: 499 a.u.
GAAGGTATTGTAGGTGGTGCGATGCTTATTGCCTAG: 523 a.u.
CTACGGCGTTACTCGCATGTGCAGATATCAGCGTTC: 673 a.u.
CTAGGTGAAGGGTAATACATCAGGTAGGTTGAATTC: 501 a.u.
GAAAAGTTAGCTCATTCTGACGTCAACATCGAATAG: 516 a.u.
GAAAACTGCTCGGCATACCTCACGCTTATTGCATAG: 528 a.u.
CTAGTAATGCATAACAACGTGCAATGCAAAGGATTC: 715 a.u.
GAACAAAGCCTTACTCATCAGATTTTTTCAAATTAG: 498 a.u.
GAAAGCAATGAAGATAACGTGTACAGACTTGGTTAG: 620 a.u.
CTAGAAGTGAAAATTTTCGTGATAATAGCGATGTTC: 521 a.u.
CTACCCTCCCCCATGCATGTGGAGTCATAGGAGTTC: 528 a.u.
CTAGCTTTGCATCCTTACGTGCGTGAGATGGCATTC: 503 a.u.
GAAGTCACCGAATTTCTCGTGGAATGATTCTTTTAG: 515 a.u.
CTAAATTAATACATAAACGTGTACAAGTTATATTTC: 589 a.u.
GAACGTTATTAGTTTGAACTCACGTGTTGCTGCTAG: 4890 a.u.
CTAAGTACTTTTCCACGTGTTTCGATTGCCTTTTTC: 2190 a.u.
CCTAACTACTATACTTTCGTGATATAGCTTCGTACA: 536 a.u.
GAATGATGTTCTAGTGATGATGTTCTTGTCATATAG: 547 a.u.
GAATTTAACCGCCGTCACGCTCGTGCAGCGCGATAG: 772 a.u.
CTAATAATGTCTTACCACCACACACTTTAACATTTC: 548 a.u.
CTAATTTAAGTTAATGACGTCATGGTGGTATAGTTC: 548 a.u.
CTAAACATTTTCTAATAGGTGACATTACAAAATTTC: 543 a.u.
GAATCTTGGTCTTGCCATGTGGTCGGGATATTCTAG: 820 a.u.

Single results of other studies
Technique: cross-linking MS
HSP90AB1 (Homo sapiens, UniProt P08238)  interaction screen (MAP1B (Homo sapiens, UniProt P46821); hits only): cross-linked
PSMB1 (Homo sapiens, UniProt P20618)  interaction screen (PSMB7 (Homo sapiens, UniProt Q99436); hits only): cross-linked
KIF5B (Homo sapiens, UniProt P33176)  cross-linked residues (KLC1 (Homo sapiens, UniProt Q07866); cell fractions; together with: DSSO): K829 to K29
NUP54 (Homo sapiens, UniProt Q7Z3B4)  interaction screen (NUP205 (Homo sapiens, UniProt Q92621); hits only): cross-linked

For quick reference, copied from above (sample 3):
L45V: -1.48 natural log
K34T: -1.4 natural log
E54N: -1.53 natural log
K39L: -1.44 natural log
L59S: -1.53 natural log
N42E: -1.46 natural log
T48F: -1.56 natural log
A49D: -0.998 natural log
